# Experimental data from different studies.
# Numbered parts are unrelated; each lists some results of a single study.
# UniProt P08588, sequence (whole entry, looked up): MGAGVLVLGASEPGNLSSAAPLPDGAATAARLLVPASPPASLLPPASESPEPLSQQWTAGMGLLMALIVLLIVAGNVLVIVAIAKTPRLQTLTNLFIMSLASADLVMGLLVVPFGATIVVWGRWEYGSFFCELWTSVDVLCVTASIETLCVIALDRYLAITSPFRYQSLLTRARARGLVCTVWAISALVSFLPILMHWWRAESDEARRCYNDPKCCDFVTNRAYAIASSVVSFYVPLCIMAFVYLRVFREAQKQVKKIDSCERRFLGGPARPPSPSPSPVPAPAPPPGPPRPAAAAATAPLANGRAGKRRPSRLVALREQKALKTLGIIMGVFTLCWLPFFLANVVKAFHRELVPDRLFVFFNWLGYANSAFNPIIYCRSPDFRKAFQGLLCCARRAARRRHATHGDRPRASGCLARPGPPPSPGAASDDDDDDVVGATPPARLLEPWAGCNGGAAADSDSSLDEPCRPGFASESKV
# UniProt P08913, sequence (whole entry, looked up): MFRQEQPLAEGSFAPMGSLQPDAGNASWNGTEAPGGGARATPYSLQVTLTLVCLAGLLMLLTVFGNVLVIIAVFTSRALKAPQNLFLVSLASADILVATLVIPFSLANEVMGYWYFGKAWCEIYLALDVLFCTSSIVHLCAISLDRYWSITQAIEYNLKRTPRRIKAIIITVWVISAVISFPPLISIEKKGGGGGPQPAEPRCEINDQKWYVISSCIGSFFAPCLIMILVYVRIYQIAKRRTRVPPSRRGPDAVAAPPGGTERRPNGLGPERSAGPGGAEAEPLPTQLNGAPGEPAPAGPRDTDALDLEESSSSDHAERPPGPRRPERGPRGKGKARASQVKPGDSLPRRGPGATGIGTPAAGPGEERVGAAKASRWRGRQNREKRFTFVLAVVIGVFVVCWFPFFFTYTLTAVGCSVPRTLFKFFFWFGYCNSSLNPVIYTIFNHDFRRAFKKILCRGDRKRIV

# Set 1 — method: protein binding microarray; molecule type: double-stranded DNA, one strand shown; sample: in vitro; concentration: not given; baseline: not given; direction: higher = stronger binding
# Target: Histone acetyltransferase KAT6A, winged helix 1, GST fusion (KAT6A, Homo sapiens, UniProt Q92794, residues 1-85)
# Setting: 8-mer, flanks averaged, mean of 2 arrays, mostly near background
# Target sequence (chain): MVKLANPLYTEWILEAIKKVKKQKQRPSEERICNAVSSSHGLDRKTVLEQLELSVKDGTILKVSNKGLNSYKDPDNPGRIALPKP
Oligonucleotide,E-score
CAAAGTCC,-0.117
ACCCAACT,-0.374
CGTGCGTA,0.27
AACTGGTA,-0.188
AGGGGTAC,-0.137
CGCGAGCA,0.0853
AGAGTGAT,-0.215
GGCATGTA,0.0558

# Set 2 — method: RNAcompete; molecule type: RNA; sample: in vitro; concentration: 20 nM; setting: 7-mer, probes averaged, single round; baseline: mean of 7-mers; direction: higher = stronger binding
# Target: PABPC1L2, full length, GST fusion (mouse, UniProt A0ABA7IW68)
# Residues (chain): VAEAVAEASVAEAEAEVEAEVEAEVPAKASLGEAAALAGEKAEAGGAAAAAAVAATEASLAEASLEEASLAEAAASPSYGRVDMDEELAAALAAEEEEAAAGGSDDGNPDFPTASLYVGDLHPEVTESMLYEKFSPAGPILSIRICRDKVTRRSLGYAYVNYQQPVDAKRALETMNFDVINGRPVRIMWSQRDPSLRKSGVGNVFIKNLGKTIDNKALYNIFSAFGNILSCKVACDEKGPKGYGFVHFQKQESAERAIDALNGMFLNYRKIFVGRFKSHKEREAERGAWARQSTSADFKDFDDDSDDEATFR
Oligonucleotide,7-mer Z-score
CACCGUG,-0.108
CCGCUCU,-0.373
CUAAGAG,-0.113
AGUUCUC,-0.389
ACCAUGG,-0.0047
UUCACGU,-0.351
AUUAAGA,0.182
GGCUCAG,0.204

# Single results of other studies
Structure (SMILES),target,test,setting,quantity,value
O=C1c2cnc(-c3ccccc3F)nc2OCCN1c1cccc(C(F)(F)F)c1,"Beta-1 adrenergic receptor (ADRB1, Homo sapiens, UniProt P08588)",agonist,,EC50,≥ 100 µM
O=C(N[C@H]1CCCCC/C=C\C2C[C@@]2(C(=O)O)NC(=O)[C@@H]2C[C@@H](Oc3ccncc3)CN2C1=O)OC1CCCC1 (stereo partly drawn),"Alpha-2A adrenergic receptor (ADRA2A, Homo sapiens, UniProt P08913)",ligand displacement,10 µM,inhibition,0.78%

# For quick reference, copied from above (set 2):
Oligonucleotide,7-mer Z-score
UUCACGU,-0.351
CCGCUCU,-0.373
AGUUCUC,-0.389
